Published values gathered from unrelated publications.
A part holds a random share of what one study measured.
Chain of UniProt P29323 (whole entry, looked up): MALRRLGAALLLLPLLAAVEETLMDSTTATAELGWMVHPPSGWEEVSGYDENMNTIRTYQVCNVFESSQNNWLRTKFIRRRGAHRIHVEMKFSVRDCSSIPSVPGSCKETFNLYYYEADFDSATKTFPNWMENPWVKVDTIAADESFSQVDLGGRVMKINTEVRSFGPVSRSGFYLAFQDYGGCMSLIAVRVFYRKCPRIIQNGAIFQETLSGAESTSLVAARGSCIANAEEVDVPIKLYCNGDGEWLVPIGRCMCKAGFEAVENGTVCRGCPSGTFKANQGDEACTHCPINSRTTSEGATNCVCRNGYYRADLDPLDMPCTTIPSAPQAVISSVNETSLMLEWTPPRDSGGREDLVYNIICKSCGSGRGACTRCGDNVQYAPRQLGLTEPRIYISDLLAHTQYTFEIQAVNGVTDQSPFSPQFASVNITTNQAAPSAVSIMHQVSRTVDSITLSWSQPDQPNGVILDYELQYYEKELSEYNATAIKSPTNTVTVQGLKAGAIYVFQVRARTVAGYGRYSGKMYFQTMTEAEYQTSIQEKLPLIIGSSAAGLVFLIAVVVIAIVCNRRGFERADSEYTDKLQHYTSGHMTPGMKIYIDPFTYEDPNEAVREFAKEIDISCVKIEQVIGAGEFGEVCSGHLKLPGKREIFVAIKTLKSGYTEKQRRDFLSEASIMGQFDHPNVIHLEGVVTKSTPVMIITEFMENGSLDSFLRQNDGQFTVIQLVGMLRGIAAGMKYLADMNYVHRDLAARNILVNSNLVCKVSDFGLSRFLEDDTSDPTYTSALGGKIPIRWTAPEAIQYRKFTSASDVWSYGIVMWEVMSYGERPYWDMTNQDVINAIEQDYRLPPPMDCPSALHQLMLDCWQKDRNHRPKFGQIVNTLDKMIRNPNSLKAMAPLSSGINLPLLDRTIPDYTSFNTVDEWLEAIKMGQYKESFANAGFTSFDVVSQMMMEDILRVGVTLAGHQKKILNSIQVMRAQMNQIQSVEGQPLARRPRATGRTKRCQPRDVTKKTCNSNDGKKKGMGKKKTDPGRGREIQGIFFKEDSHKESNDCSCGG
Chain of UniProt O95747 (whole entry, looked up): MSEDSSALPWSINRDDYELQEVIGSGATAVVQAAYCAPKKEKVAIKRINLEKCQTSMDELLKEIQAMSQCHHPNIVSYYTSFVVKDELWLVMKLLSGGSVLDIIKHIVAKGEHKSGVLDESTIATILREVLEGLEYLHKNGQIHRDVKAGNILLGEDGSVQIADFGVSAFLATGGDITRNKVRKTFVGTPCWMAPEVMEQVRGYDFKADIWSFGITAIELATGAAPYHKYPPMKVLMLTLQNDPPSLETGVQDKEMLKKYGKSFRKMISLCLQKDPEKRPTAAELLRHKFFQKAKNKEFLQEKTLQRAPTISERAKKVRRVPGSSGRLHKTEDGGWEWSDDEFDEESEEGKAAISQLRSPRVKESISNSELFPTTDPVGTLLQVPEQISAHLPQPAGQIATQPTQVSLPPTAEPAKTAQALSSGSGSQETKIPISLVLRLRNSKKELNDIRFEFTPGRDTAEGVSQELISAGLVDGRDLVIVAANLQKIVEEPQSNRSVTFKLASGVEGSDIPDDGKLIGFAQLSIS
Chain of UniProt O94804 (whole entry, looked up): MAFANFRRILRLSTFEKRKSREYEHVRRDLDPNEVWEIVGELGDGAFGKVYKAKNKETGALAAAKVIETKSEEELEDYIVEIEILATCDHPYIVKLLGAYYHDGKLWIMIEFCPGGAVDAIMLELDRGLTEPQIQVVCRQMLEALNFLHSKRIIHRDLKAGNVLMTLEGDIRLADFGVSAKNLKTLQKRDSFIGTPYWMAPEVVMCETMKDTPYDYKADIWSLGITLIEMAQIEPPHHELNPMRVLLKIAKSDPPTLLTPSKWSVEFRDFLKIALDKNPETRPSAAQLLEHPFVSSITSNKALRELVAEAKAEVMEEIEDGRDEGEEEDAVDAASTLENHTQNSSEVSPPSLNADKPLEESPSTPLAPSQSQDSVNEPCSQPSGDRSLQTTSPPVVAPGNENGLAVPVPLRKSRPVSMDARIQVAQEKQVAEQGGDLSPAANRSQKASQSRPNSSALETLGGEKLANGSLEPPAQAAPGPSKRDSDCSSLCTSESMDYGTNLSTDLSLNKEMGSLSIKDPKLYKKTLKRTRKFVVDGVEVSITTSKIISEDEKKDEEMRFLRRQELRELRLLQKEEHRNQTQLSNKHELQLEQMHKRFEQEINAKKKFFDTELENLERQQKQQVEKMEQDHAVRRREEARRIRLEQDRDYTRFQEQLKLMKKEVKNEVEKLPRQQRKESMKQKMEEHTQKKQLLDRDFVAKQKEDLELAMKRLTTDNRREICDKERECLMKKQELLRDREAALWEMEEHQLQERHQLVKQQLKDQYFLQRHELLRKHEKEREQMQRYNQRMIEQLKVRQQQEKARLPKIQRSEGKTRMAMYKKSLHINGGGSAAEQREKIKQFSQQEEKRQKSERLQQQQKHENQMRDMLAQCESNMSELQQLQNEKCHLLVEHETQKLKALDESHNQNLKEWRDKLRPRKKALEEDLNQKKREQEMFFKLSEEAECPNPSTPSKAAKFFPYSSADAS
Chain of UniProt P23443 (whole entry, looked up): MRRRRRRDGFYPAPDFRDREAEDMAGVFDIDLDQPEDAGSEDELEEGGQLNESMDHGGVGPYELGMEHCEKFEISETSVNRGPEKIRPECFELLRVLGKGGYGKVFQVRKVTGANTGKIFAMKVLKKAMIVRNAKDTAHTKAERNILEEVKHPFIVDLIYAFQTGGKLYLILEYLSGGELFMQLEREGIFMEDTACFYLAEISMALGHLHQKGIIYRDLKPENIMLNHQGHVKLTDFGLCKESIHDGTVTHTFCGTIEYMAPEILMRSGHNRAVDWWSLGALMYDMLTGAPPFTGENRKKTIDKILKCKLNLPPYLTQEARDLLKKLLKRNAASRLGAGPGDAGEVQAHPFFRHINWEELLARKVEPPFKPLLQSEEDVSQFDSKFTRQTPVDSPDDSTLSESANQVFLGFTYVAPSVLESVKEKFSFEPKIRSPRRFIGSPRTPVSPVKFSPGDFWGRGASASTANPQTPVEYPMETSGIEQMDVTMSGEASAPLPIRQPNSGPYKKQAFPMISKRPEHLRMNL

Set 1
Structure (SMILES): O=C(Nc1ccccc1)Nc1cccc(Oc2ccc3nccn3n2)c1
Tested at: 1 µM
target	test	remaining binding
PRKAA1 (Homo sapiens, UniProt Q13131)	binding, competition with immobilised ligand	89%
RPS6KB1 (Homo sapiens, UniProt P23443)	binding	100%
NEK10 (Homo sapiens, UniProt Q6ZWH5)	binding	100%
PAK6 (Homo sapiens, UniProt Q9NQU5)	binding	100%
FGFR1 (Homo sapiens, UniProt P11362)	binding, competition with immobilised ligand	87%
LRRK2 (Homo sapiens, UniProt Q5S007, G2019S)	binding	39%
EPHB2 (Homo sapiens, UniProt P29323)	binding, competition with immobilised ligand	97%
MAPK10 (Homo sapiens, UniProt P53779)	binding	100%
MINK1 (Homo sapiens, UniProt Q8N4C8)	binding, competition with immobilised ligand	87%
MYLK4 (Homo sapiens, UniProt Q86YV6)	binding	100%
GAK (Homo sapiens, UniProt O14976)	binding, competition with immobilised ligand	100%
PRKD3 (Homo sapiens, UniProt O94806)	binding	100%
OXSR1 (Homo sapiens, UniProt O95747)	binding	100%
MAP4K4 (Homo sapiens, UniProt O95819)	cell-free binding	100%
SGK1 (Homo sapiens, UniProt O00141)	binding	100%
PIK3C3 (Homo sapiens, UniProt Q8NEB9)	binding	100%
CDK13 (Homo sapiens, UniProt Q14004)	binding	100%
CSNK1G3 (Homo sapiens, UniProt Q9Y6M4)	binding	98%
ACVR2B (Homo sapiens, UniProt Q13705)	binding, competition with immobilised ligand	94%
PIK3CA (Homo sapiens, UniProt P42336, E542K)	binding	99%

Set 2
Compound: C[C@@H]1CN(c2ccc(-c3cc(C(=O)NCCOCCOCCOCCOCCOCCOCCNC(=O)/C=C/c4[nH]cc(C(=O)N[C@@H](CC(N)=O)c5ccc(F)c(Cl)c5)c4-c4ccc(Cl)cc4F)ccc3F)cc2NC(=O)c2ccc(F)cc2C(F)(F)F)C[C@H](C)N1C
Observed: thermal unfolding
Method: differential scanning fluorimetry
Tested at: 5.5 µM
Reading: higher = more unfolded
WDR5: WD repeat-containing protein 5 (WDR5, Homo sapiens, UniProt P61964)
DCAF1: DDB1- and CUL4-associated factor 1 (DCAF1, Homo sapiens, UniProt Q9Y4B6)
Chain of UniProt Q9Y4B6 (whole entry, looked up): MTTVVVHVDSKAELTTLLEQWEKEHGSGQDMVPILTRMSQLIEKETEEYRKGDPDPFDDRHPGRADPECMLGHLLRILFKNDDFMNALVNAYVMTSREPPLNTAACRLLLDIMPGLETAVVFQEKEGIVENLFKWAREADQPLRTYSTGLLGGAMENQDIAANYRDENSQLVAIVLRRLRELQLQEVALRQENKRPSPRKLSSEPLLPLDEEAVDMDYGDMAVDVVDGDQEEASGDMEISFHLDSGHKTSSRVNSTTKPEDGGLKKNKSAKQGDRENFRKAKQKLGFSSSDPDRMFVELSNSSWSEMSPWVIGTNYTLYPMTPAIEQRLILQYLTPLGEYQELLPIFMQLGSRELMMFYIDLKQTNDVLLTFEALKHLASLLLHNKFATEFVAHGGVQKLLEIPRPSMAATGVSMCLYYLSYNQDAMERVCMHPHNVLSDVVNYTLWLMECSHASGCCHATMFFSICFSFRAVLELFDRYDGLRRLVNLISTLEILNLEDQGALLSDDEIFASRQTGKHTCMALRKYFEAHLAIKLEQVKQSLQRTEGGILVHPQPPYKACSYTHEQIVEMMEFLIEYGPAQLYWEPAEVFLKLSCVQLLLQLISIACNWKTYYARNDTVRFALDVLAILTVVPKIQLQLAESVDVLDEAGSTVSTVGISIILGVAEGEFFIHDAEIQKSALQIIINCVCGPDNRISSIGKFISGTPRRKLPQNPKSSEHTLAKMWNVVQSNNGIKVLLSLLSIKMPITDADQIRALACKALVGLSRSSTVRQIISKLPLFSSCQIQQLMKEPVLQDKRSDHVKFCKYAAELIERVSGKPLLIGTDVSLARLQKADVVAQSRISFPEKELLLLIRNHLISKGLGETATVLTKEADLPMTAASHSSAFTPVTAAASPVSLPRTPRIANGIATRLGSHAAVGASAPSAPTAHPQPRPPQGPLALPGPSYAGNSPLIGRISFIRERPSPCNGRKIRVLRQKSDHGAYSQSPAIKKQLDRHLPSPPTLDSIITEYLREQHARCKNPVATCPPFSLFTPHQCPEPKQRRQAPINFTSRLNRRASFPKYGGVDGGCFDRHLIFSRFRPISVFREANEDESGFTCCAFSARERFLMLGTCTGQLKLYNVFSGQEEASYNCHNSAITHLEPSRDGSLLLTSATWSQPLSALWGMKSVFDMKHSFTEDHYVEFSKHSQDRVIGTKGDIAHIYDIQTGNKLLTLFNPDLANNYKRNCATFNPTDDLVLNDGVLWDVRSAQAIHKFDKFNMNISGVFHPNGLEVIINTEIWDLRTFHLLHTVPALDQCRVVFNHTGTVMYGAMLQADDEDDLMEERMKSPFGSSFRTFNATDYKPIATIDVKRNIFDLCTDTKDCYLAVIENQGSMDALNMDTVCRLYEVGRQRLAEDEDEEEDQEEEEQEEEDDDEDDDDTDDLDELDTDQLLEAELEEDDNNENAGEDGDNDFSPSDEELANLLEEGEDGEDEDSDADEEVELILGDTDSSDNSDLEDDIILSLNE
target	conditions	SYPRO Orange fluorescence [a.u.]
WDR5	49.8 °C	16300
WDR5	91.21 °C	53100
DCAF1	69.81 °C	48500
DCAF1	50.6 °C	18600
DCAF1	54.41 °C	25400
DCAF1	83.41 °C	37300
WDR5	91.01 °C	53400

Set 3
Compound: CNc1ncc2cc(-c3cc(OC)cc(OC)c3Cl)c(=O)n(CCc3ccc(NC(=O)C(C#N)=CC(C)(C)N4CCOCC4)cc3)c2n1
MAPK12: Mitogen-activated protein kinase 12 (MAPK12, Homo sapiens, UniProt P53778)
Chain of UniProt P53778 (whole entry, looked up): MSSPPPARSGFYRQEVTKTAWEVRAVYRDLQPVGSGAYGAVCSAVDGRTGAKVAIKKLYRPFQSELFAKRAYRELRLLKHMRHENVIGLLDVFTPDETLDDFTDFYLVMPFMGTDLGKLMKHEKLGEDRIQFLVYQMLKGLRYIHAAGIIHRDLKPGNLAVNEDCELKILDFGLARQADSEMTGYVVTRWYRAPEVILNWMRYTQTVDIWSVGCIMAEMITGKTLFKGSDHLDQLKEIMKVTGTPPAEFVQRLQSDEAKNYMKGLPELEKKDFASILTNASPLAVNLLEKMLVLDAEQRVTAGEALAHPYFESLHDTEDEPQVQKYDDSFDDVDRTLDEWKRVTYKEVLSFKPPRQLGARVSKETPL
target	test	conditions	inhibition [%]
RPS6KA2 (Homo sapiens, UniProt Q15349)	kinase activity	0.1 µM	-3
SPHK1 (Homo sapiens, UniProt Q9NYA1)	kinase activity	1 µM	2
LATS2 (Homo sapiens, UniProt Q9NRM7)	kinase activity	1 µM	2
MAPK12	kinase activity	0.1 µM	-3
AKT1 (Homo sapiens, UniProt P31749)	kinase activity	0.1 µM	3
MET (Homo sapiens, UniProt P08581)	kinase activity	0.1 µM	2
STK16 (Homo sapiens, UniProt O75716)	kinase activity	1 µM	0
TNIK (Homo sapiens, UniProt Q9UKE5)	kinase activity	1 µM	2
MAPK12	kinase activity	1 µM	4
PI4KB (Homo sapiens, UniProt Q9UBF8)	kinase activity	1 µM	-2
NDRG1	–	0.1 µM, mean	-4
STK10 (Homo sapiens, UniProt O94804)	kinase activity	0.1 µM	-3
DYRK4 (Homo sapiens, UniProt Q9NR20)	kinase activity	1 µM	-2
LCK (Homo sapiens, UniProt P06239)	kinase activity	1 µM	25

Set 4
SMILES: Cc1ccc(O)c(C)c1-c1cnc2[nH]c(-c3cnc(N4CCC(CN5CCN(c6cc7c(cc6F)n(C6CCC(=O)NC6=O)c(=O)n7C)CC5)CC4)nc3)cc2c1C#N (centres unmarked)
Target: Membrane-associated tyrosine- and threonine-specific cdc2-inhibitory kinase (PKMYT1, Homo sapiens, UniProt Q99640)
Target sequence (Q99640 1-499): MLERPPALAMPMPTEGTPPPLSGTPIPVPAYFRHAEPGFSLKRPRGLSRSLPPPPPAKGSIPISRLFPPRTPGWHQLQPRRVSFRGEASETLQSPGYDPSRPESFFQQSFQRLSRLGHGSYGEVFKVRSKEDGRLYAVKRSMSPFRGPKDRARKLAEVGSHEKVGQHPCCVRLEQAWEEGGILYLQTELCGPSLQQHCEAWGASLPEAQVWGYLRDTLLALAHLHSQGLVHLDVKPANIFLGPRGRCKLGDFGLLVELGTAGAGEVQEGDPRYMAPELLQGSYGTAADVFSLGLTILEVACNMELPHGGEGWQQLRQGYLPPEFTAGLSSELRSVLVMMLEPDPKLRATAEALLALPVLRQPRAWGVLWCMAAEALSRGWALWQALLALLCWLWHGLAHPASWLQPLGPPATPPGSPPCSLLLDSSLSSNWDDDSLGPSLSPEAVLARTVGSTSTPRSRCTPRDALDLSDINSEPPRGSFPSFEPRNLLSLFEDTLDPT
test	conditions	inhibition
–	0.3333 µM	99.4%
–	0.1111 µM	98.5%
cell-free assay, inhibitor, TR-FRET	460 pM	7.25%
cell-free assay, inhibitor, TR-FRET	1 µM	99.2%
–	0.01235 µM	85.6%
–	0.03704 µM	95.4%
–	0.000152 µM	3.37%
–	0.00137 µM	22.8%
–	0.00046 µM	7.59%
cell-free assay, inhibitor, TR-FRET	51 pM	-0.458%
cell-free assay, inhibitor, TR-FRET	0.1111 µM	99%
–	1 µM	100%

Some of these lines once more (set 3):
target	test	conditions	inhibition [%]
TNIK (Homo sapiens, UniProt Q9UKE5)	kinase activity	1 µM	2
MAPK12	kinase activity	1 µM	4
PI4KB (Homo sapiens, UniProt Q9UBF8)	kinase activity	1 µM	-2
NDRG1	–	0.1 µM, mean	-4
STK10 (Homo sapiens, UniProt O94804)	kinase activity	0.1 µM	-3
DYRK4 (Homo sapiens, UniProt Q9NR20)	kinase activity	1 µM	-2
LCK (Homo sapiens, UniProt P06239)	kinase activity	1 µM	25
